Experimental data of several laboratories.
Parts stem from different laboratories: compare values within a part only.

Block 1
Target: Interferon regulatory factor 7, full length, phosphomimetic (IRF7, Homo sapiens, UniProt Q92985, residues 1-503, S471D/S472D/S475D/S476D/S477D/S483D/S484D/S487D)
Chain of UniProt Q92985 (whole entry, unmodified, looked up): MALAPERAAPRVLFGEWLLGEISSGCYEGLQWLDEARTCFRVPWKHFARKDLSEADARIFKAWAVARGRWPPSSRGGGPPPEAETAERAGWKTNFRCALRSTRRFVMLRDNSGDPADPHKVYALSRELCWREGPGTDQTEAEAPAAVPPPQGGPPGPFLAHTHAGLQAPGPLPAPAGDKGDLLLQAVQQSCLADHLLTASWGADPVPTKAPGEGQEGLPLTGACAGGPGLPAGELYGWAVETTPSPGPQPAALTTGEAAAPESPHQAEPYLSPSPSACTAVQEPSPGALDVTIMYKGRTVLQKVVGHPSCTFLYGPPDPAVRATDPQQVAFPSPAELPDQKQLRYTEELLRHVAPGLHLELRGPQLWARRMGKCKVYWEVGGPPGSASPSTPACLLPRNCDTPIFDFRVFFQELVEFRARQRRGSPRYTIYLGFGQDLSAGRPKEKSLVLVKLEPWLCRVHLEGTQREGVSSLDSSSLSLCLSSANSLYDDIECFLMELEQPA
Method: protein-binding microarray
Molecule type: double-stranded DNA, one strand shown
Sample: in vitro
Tested at: 2200 nM top
Notes: 60-bp whole probe
Together with: salmon DNA 0.4 mg/ml
Reference: random background probes
Reading: higher = stronger binding
All sequences stand within: GCCTAGCAC … GTCTTGATTCGCTTGACGCTGCTG
| Strand | fitted relative affinity |
| --- | --- |
| TTAGGTATCGGGTTTCCGTTAGTGCTA | 1.49 z-score |
| TTAGATTTCAGATTCGATTAGTGCTAG | 2.53 z-score |
| TTAGAACTGGGGACTGCATTAGTGCTA | -0.433 z-score |
| TTCGGACTGGGGTATCGGTTAGTGCTA | -0.147 z-score |
| TTAGGACTGGGTCTCGGTGAGTGCTAG | -0.733 z-score |
| GACGAAATGAGTTTCGAGACGTGCTAG | 2.2 z-score |
| GACGGACTGCACTATCGGGACGTGCTA | -0.304 z-score |
| TTAAGACTGCTTATCCTTTAGTGCTAG | 0.383 z-score |
| TGAAGACTCTCTTGTCTGGATGTGCTA | -0.0962 z-score |
| TTAGGTATCGGTCTAGGTTAGTGCTAG | 0.545 z-score |
| TTAGGTATCCTTCTACTTTAGTGCTAG | 0.779 z-score |
| TGGCACCTCTAGACTCTAAATGTGCTA | -0.465 z-score |
| GACGGACTGCTTCTTCTGACGTGCTAG | 0.47 z-score |
| GACGGTCTCGGTCTCGTGACGTGCTAG | 0.112 z-score |
| ACCCATCTCCAGTAGCCTAGCGTGCTA | 0.697 z-score |
| TTAGGTCTCCTTAACCTTTAGTGCTAG | 0.134 z-score |
| TTAGGTATCGTACTGCTTTAGTGCTAG | 0.771 z-score |
| GACGGACTGCTTATCTTGACGTGCTAG | 0.188 z-score |
| TGCTCCTTATGGCTAAAGGGGTGCTAG | -0.0985 z-score |
| TTAGGTCTGGGGACTGGGTTAGTGCTA | -0.78 z-score |
| TTAGATATCAGTCACGATTAGTGCTAG | -0.1 z-score |

Block 2
Target: RNA binding protein fox-1 homolog 2, RRM domain, GST-SBP tag (RBFOX2, Homo sapiens, UniProt O43251-10, residues 100-194)
Method: RNA Bind-n-Seq
Molecule type: RNA
Sample: in vitro
Tested at: 365 nM
Notes: natural RNA segment, single round, ends assumed
Reference: no-protein control
Reading: higher = stronger binding
All sequences stand within: GGGAGUUCUACAGUCCGACGAUC … UGGAAUUCUCGGGUGCCAA
Target sequence (chain): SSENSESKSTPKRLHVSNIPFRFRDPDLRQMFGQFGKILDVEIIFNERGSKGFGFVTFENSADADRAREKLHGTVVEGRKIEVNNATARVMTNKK
| Strand | RBNS enrichment (R) |
| --- | --- |
| GUAUCCCUGUGCAAACUCCCAUGUUCUAGUUGCUGUUAGCAUCCCCUUUGUUGCUGUCUGAGAAAGUGAAAGAUUGUGUAUUUCUAUUAAAACAUUUACAGUCAAAAUCC | 1.43 |
| UUGGGUCAACUGACAUCCAUUGUAUAUACUAAUUGGUUUCUUUCAAACUAUUUUUUUUUUUGGUUUGGUUUUGAAUUGUUGGUUUCUUUUCAUUUUAUCAAAAGCAGGGC | 0.513 |
| UUUUUUUUCUUUCUUAAGCAGCCCUUGUGCUUCAGUAUGUCCUUGUCAUCAGUAUUAACUCUGGGAUACUCCGGGCUCUGUGUCUUUCCCUGUGAGGCGACAGUACAUGU | 0.702 |
| CCAAAAUAACCACCUUGUAAAUACCCUUAGAGCCAGCCCUGAUGCUUUACAUCAUUGCUACUUGAUUUUGUUAUGCAACUCAGAUCUCAGAUCUCAGAAUACUUAACCAA | 0.299 |
| AGAACUGAAAUUAGUUGGAAUUGUAAGCAGUGAAUAGAUGUGUUGUUAGAAUGAUUCCAUCACUUAUACAUUGUUUAAAAUGCUAAUAAAGUAACUUGCUUUGUAAGAAU | 1.56 |
| CGCCAACUCCCACGCAUUCGUGGGCAGAGCCCCGAGGCUGGUGGGCAGGACAAGGGGACUGGAAGAGGUUUCCUCAGAAGGCUCCCGGAACUUGGAGUCAGGCAUCGUGA | 0.389 |
| CUGUGUUGUUUUUCUGCUGAGGGUGGAAUAUUCUGUCCUUUUAAUCAAGGUGAUUGUGAUUUUGACUAAUAAAAAGGACUUUAUAAUUGUGGGGGGACUUGGCUUUAAGA | 0.941 |
| AAAUUUUAGCUUAAUUGUCUUUGACAAUGGACUAUUUGGAGAAAUGAAUGAAUAGGUUGUGGCUGUCAACCUCUGGAACCAGAAGUGCCUGUAAGACAGUCCUUCAAGUU | 0.841 |
| CUACAGACCAAAAUCCACUUGUCAGCAGGAGCAGCAGCCCAGGCCCAGCACCAGCGGUCUUCCGGCUCCUCUGAGGGCUGCCACGUUGGGCGAGGGGAGCCAUGCCAAGG | 0.292 |
| CACAUAAACAUAAUUACCAAUAAUAAAAAAUUUAAAUGAGUUAUCAAAGGCGAUUUAUCACAUGUAUAGAACAGGCCAAGUGUAGAAAAACAUAGAAGUCAUUGUUAGUC | 0.256 |
| AUUACUGUGUACCUAAGUGGUGUGAUGUAAAUACUGGAAACAAAAACAGCAGUUGCAUUGAUUUUGAAAACAAACCCCCUUGUUAUCUGAACAUGUUUUCUUCAGGAACA | 0.309 |
| AAUCUCAGAAUGGAUGGAAAAGAGGAAGACAUUAGGGACUGUCAGGUCCAUUUAAAGAGGAAAUUACAUUGUUACUCUUCUUGAUCUCCUCAGGCUAUGUAAGUCUGAAG | 0.786 |

Block 3
Target: RING finger protein unkempt homolog, zinc fingers 1-6, GST-SBP tag (UNK, Homo sapiens, UniProt Q9C0B0, residues 30-357)
Method: RNA Bind-n-Seq
Molecule type: RNA
Sample: in vitro
Tested at: not given
Notes: RNA with constant flanks, ends assumed
Reference: input RNA pool
Reading: higher = stronger binding
All sequences stand within: GGGAGUUCUACAGUCCGACGAUC … CAACAGAGGAUUGAGCAUCA
Residues (chain): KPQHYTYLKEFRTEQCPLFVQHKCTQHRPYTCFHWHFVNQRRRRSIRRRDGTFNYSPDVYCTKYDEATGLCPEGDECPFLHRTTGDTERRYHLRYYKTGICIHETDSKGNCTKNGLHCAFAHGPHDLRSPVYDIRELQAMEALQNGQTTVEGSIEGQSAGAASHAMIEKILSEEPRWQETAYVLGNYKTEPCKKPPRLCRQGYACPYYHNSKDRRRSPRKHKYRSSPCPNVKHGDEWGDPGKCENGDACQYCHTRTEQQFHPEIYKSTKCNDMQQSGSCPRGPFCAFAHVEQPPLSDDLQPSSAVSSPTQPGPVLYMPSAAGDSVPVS
| Strand | bound/input enrichment [ratio] |
| --- | --- |
| AGAGAUUUUAUUUGCAAGUUAAUCAAAUAUUGGACAUUUAGAUUUUUUCUACUUUCUGGCCCGUAUAAGUAAUGCUGCUAGAACAUUUAUGUAAUUUUUGUAUGUGGUCAUGGUUUCUUU | 6.79 |
| GUGUGCUCUGAGGGAGGGUCCGAGCCAGCCGCUGUUUUGCCGGAGGAGCCCCUCAGGCCGCCGUAAGCAUUAAUAAUGUCUUUCAUCUUUGAGUGGAUCUACAAUGGCUUCAGCAGUGUG | 0.159 |
| CUCCUAAAAACUGUACCAAUUAUUCAGAAUCAGAUGGAUGCACUUCUUGAUUUUAAUGUUAACCGCAAUGAACUUACAAAUGGGGUAAUAAAUGCUGCCUUCAUGCUCCUGUUCAAAGAU | 0.391 |
| GAAGGCAAACCACUCUUCUCCCAGGCCUCUGCUCACCAGGGCUUGAGCUUUGCCUCAAGGACCGAAGGAUGUACAGAGGGGGCUCUUGGUUUGAGGACCACUUGAGCCGUUUUCUCAUCU | 0.201 |
| ACAGAUGAAGCUGACCUGGUUCUUGCAAAAGAAGCUAACGUGAAGUGUCCACAGAUUGUGACCGCAUUUUAUGAAGAGAGACUGACGUGGCACGCAUAUCCAGAGGAUGCGGAAAACAAA | 0.207 |
| CAAGUGCUGGCAGCUUUGCAGGAACGUCUUGACAACGUCUCUCACACUCCUUCUAGUUACACCGAAACUUUACCUAAAGCUGUCAAAAGAAGAAUUAAUGCCCUGAAGCAGCUCCAGGUG | 0.437 |
| GCUUACAAAGCUGCUAGUGACAUUGCGAUGACAGAACUUCCUCCAACGCACCCCAUUCGUUCCGGUCUUGCUCUCAACUUUUCCGUAUUCUACUAUGAAAUUCUUAAUUCCCCCGACCGU | 0.523 |
| GACAAAAAAGCAGAAAUUCUAAUUAACAAGACACAUAAGCAGCAGUUUAAUAAACUCAUUACCCGCCAGGCUGUGCAUGUUACAACUCAUUCUAAAAAUGCUUCACACAGGGUUCCAAGA | 0.336 |
| AAAAAACCCCGAUUUUAGAUGUGAUAUUUAGGCUUUCAUUCCAGUUUGUUUUGUUUUUUUGUUCCGAUACCAAUCUUUUAAAUUCUUGCAUUUUAGUAAGAAAGCUAUCUUUUUAUGGAU | 19.2 |
| GGAUUGACCUAGUCUUGCUCCGACCUCAUAAACAAUCCACUCUGUAUUGUGCCCUGUCAAACCCGUGUGUGUGGUGUUAAUGAUGCUGGGAUUUUAUUUAUUGUAAAGCAAUGAGUCUGG | 0.22 |
| UUCAGCCCCCUGAAAGCCUCUGGAGAUGGAGAAUCUCUGGAUGAAGAUUCCGAGUUCACCUCCGCCUCUGACUUUGAAAUUGGGCACUUUUUUCGUGAGCGCAUCGUGCCACGGGCUGUC | 0.0887 |

Block 4
Target: Prothrombin, mature alpha-thrombin (F2, Homo sapiens, UniProt P00734)
Method: aptamer microarray, sandwich
Molecule type: DNA with 2'F-ANA
Sample: in vitro
Tested at: 200 nM
Notes: whole 15-mer aptamer, many near background
Together with: Cy3 exosite-II aptamer, 400 nM
Reading: higher = stronger binding
Strand: GGTTGGTGTGGTTGG
| Modification | mean fluorescence intensity [a.u.] |
| --- | --- |
| 2'F-ANA at 1 2 3 4 5 6 7 8 9 10 12 14 | 49.6 |
| 2'F-ANA at 1 2 3 8 10 11 13 14 15 | 63.8 |
| 2'F-ANA at 4 9 10 | 90.9 |
| 2'F-ANA at 6 15 | 486 |
| 2'F-ANA at 4 8 9 11 12 13 | 353 |
| 2'F-ANA at 1 5 6 9 11 12 | 90.6 |
| 2'F-ANA at 3 5 6 8 9 11 12 14 | 59.7 |
| 2'F-ANA at 1 2 4 5 6 8 9 10 11 12 13 | 58.9 |
| 2'F-ANA at 1 2 7 11 12 | 325 |
| 2'F-ANA at 1 4 5 6 13 15 | 48.4 |
| 2'F-ANA at 1 2 4 7 9 10 11 13 14 15 | 67.7 |
| 2'F-ANA at 1 2 4 7 12 14 15 | 87.1 |
| 2'F-ANA at 1 4 7 10 11 15 | 51.3 |
| 2'F-ANA at 3 4 5 9 10 11 | 60.4 |
| 2'F-ANA at 3 4 5 6 9 11 12 14 | 53.3 |
| 2'F-ANA at 3 4 8 9 11 | 563 |
| 2'F-ANA at 1 2 3 4 7 8 13 14 15 | 74.7 |
| 2'F-ANA at 2 3 6 7 8 10 11 13 14 15 | 217 |
| 2'F-ANA at 1 2 4 6 7 13 14 15 | 49.9 |

A few entries again (block 1):
| Strand | fitted relative affinity |
| --- | --- |
| GACGGACTGCACTATCGGGACGTGCTA | -0.304 z-score |
| TTAAGACTGCTTATCCTTTAGTGCTAG | 0.383 z-score |
| TGAAGACTCTCTTGTCTGGATGTGCTA | -0.0962 z-score |
| TTAGGTATCGGTCTAGGTTAGTGCTAG | 0.545 z-score |
| TTAGGTATCCTTCTACTTTAGTGCTAG | 0.779 z-score |
| TGGCACCTCTAGACTCTAAATGTGCTA | -0.465 z-score |
